Results pooled from the literature.
Compare with care: the assays were run in different laboratories. Numbers after ± are the reported error.
Organism: Bacillus subtilis

COc1cc(NC(=O)CSc2nc3ccccc3c(=O)n2-c2ccc(S(N)(=O)=O)cc2)cc(OC)c1OC — inhibition zone (microbial growth, well diffusion; ATCC6633; 500 µg/mL, 24 h): 20 mm
C=C1CC(OC(=O)C(C)(O)CCl)C2C(=C)C(=O)OC2C2C1CC(O)C2(O)CCl (stereo not drawn) — inhibition zone (concentration not given): 12 ± 1.6 mm
Clc1ccc(CSc2nnc(C34CC5CC(CC(C5)C3)C4)n2-c2ccccc2)cc1 — inhibition zone diameter (IFO 3007; 200 µg/disc, 24 h, 37 °C): 17 mm
CCOC(=O)c1sc(N/N=C/c2c(-c3ccc(C)cc3)nc3ncccn23)nc1C — inhibition zone (microbial growth, well diffusion; ATCC6051; 100 µg/mL): 12 mm
Cc1cccc([N+](=O)[O-])c1NC(=O)CSc1nc2ccccc2c(=O)n1-c1ccc(S(N)(=O)=O)cc1 — inhibition zone (microbial growth, well diffusion; ATCC6633; 500 µg/mL, 24 h): 30 mm
Cn1c(C23CC4CC(CC(C4)C2)C3)nn(CCN2CCCCC2)c1=S — inhibition zone diameter (IFO 3007; 200 µg/disc, 24 h, 37 °C): 19 mm
CCOC(=O)c1cnc(N/N=C/c2c(-c3ccc(C#N)cc3)nc3ncccn23)s1 — inhibition zone (ATCC 6051; 100 µg/mL): 15 mm
FC(F)(F)c1cc(CSc2nnc(C34CC5CC(CC(C5)C3)C4)n2-c2ccccc2)cc(C(F)(F)F)c1 — inhibition zone diameter (IFO 3007; 200 µg/disc, 24 h, 37 °C): 32 mm
CN[C@H](CC(C)C)C(=O)N[C@H]1C(=O)N[C@@H](CC(N)=O)C(=O)N[C@H]2C(=O)N[C@H]3C(=O)N[C@H](C(=O)N[C@H](C(=O)O)c4cc(O)cc(O)c4-c4cc3ccc4O)[C@H](O)c3ccc(c(Cl)c3)Oc3cc2cc(c3O[C@@H]2O[C@H](CO)[C@@H](O)[C@H](O)[C@H]2O[C@H]2C[C@](C)(NCc3ccc(C(=O)OCCCCCCN(Cc4ccccn4)Cc4ccccn4)cc3)[C@H](O)[C@H](C)O2)Oc2ccc(cc2Cl)[C@H]1O — regulation factor (protein synthesis, item: SdhA; 168; concentration not given, 10 min, at peak effective concentration; relative to: untreated): 3.1 ± 0.9
CCc1cccc(NC(=O)CSc2nc3ccccc3c(=O)n2-c2ccc(S(N)(=O)=O)cc2)c1 — inhibition zone (microbial growth, well diffusion; ATCC6633; 500 µg/mL, 24 h): 16 mm
CC(C)=CCC/C(C)=C/CNCCNC1C2CC3CC(C2)CC1(O)C3 (stereo not drawn) — IC50 (microbial growth): 54 µM
CCN(CC)CCSc1nnc(C23CC4CC(CC(C4)C2)C3)n1C — inhibition zone diameter (IFO 3007; 200 µg/disc, 24 h, 37 °C): 14 mm
CCOC(=O)c1cnc(N/N=C/c2c(-c3ccc(F)cc3)nc3ncccn23)s1 — inhibition zone (ATCC 6051; 100 µg/mL): 16 mm
NS(=O)(=O)c1ccc(-n2c(S)nc3ccccc3c2=O)cc1 — inhibition zone (microbial growth, well diffusion; ATCC6633; 500 µg/mL, 24 h): 16 mm
S=c1n(CN2CCN(c3ccccn3)CC2)nc(C23CC4CC(CC(C4)C2)C3)n1-c1ccccc1 — inhibition zone diameter (IFO 3007; 200 µg/disc, 24 h, 37 °C): 30 mm

Some of these lines once more:
Clc1ccc(CSc2nnc(C34CC5CC(CC(C5)C3)C4)n2-c2ccccc2)cc1 — inhibition zone diameter (IFO 3007; 200 µg/disc, 24 h, 37 °C): 17 mm
CCOC(=O)c1sc(N/N=C/c2c(-c3ccc(C)cc3)nc3ncccn23)nc1C — inhibition zone (microbial growth, well diffusion; ATCC6051; 100 µg/mL): 12 mm
